Results of several laboratories.
Every numbered part comes from another study and shows a few of its results, in no order. Changes are numbered by the printed parent chain.

Set 1
Target: CCNE1, cyclin fold, Cln2 fusion (human)
Method: yeast growth competition, sequencing
Medium: yeast
Setting: strong parent motif
Relative to: not given
Reading: higher = stronger binding
Parent: RBL1 docking peptide (human); GSAKRRLFGEDPP
| Change | normalised enrichment score |
| --- | --- |
| G9C | 7.51 |
| G1N | 6.44 |
| A3E | 2.67 |
| G9I | 6.74 |
| F8D | 0.616 |
| R5A | 0.379 |

Set 2
Target: POU domain, class 5, transcription factor 1, POU domain (Pou5f1, Mus musculus, UniProt P20263, residues 131-289)
Chain of UniProt P20263 (131-289, looked up): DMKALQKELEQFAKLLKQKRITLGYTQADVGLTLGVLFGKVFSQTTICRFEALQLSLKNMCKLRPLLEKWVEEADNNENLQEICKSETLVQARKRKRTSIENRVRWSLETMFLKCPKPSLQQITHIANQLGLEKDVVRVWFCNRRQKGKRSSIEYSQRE
Method: Spec-seq
Molecule type: double-stranded DNA, one strand shown
Medium: in vitro
Tested at: not given
Setting: whole probe, mean of replicates
Relative to: not given
Reading: lower = stronger binding
Constant ends, left off below: GAGTCGTCTCGTCAGCACA … CCGTAGAGCACTCAGGTC
| Oligonucleotide | relative binding energy |
| --- | --- |
| TGCGCTG | 0.872 ln ratio |
| TGCCCGC | 0.791 ln ratio |
| TCTGAAT | -0.732 ln ratio |
| TGCCCAA | 0.464 ln ratio |
| TGCGCCC | 0.445 ln ratio |
| GACTAAT | 0.509 ln ratio |
| TGCCCAT | 0.673 ln ratio |

Set 3
Target: Interferon regulatory factor 7, full length, phosphomimetic (IRF7, Homo sapiens, UniProt Q92985, residues 1-503, S471D/S472D/S475D/S476D/S477D/S483D/S484D/S487D)
Method: protein-binding microarray
Molecule type: double-stranded DNA, one strand shown
Medium: in vitro
Tested at: 2200 nM top
Setting: 60-bp whole probe
Added: salmon DNA 0.4 mg/ml
Relative to: random background probes
Reading: higher = stronger binding
Constant ends, left off below: GCCTAGCAC … GTCTTGATTCGCTTGACGCTGCTG
Residues (chain): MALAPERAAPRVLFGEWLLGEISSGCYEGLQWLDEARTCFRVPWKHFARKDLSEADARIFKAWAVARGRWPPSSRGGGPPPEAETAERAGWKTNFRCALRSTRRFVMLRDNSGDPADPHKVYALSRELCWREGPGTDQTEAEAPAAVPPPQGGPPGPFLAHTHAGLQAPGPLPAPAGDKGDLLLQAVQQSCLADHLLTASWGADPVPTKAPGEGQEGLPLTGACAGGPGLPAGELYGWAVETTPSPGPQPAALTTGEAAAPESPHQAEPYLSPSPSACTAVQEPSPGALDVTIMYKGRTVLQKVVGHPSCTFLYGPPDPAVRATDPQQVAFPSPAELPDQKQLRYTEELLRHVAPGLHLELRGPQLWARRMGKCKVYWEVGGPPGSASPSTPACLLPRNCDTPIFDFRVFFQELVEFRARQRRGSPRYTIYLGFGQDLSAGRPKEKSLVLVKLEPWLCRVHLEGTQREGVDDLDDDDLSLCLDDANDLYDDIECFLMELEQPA
| Oligonucleotide | fitted relative affinity [z-score] |
| --- | --- |
| TTCTAATTTACTTTGGTTGGGTGCTAG | 0.561 |
| TTAGGACTGGGGTATCAGTTAGTGCTA | -0.546 |
| TTAGGTCTCGGTATAGGTTAGTGCTAG | 0.178 |
| TTAGGTATCGACATTCGGTTAGTGCTA | 1.55 |
| CCAGACTTGATTTTGGTCTTGTGCTAG | 0.916 |
| TCACCTCTCTTTCCAACACTGTGCTAG | 2.49 |
| TTAGGTTTCGGACTGTGTTAGTGCTAG | 3.65 |
| GACGATTTCGTGTTTCGAGACGTGCTA | 4.12 |

Mixed results
| Molecule | target | assay | system | setting | how to read | measurement | result |
| --- | --- | --- | --- | --- | --- | --- | --- |
| PhoQ, residues 284 288 289 292 302 303 TTCLQL | PhoP, residues 12 14 15 18 19 HLGGL (Escherichia coli, UniProt P23836) | Sort-seq, measured: YFP reporter | E. coli | PhoQ-PhoP variant library, added: 10 µM Mg2+ | relative to: high Mg2+ state, higher = stronger signaling | fold induction | 3.12 |

A few entries again (set 2):
| Oligonucleotide | relative binding energy |
| --- | --- |
| TGCGCTG | 0.872 ln ratio |
| TCTGAAT | -0.732 ln ratio |
| TGCGCCC | 0.445 ln ratio |
